Published values gathered from unrelated publications.
Compare with care: the assays were run in different laboratories. Numbers after ± are the reported error.
Target: Kappa-type opioid receptor (OPRK1, Homo sapiens, UniProt P41145)

Cc1cc(O)cc(C)c1CC(N)C(=O)NC1CCNc2c(Cc3ccccc3)cc(Cc3ccccc3)cc21 (stereo not drawn) — Ki (ligand displacement, radioligand; cell membranes): 23 nM
CC(C)C[C@H](NC(=O)[C@H](Cc1cccc2ccccc12)NC(=O)CNC(=O)[C@H](NC(=O)[C@@H](N)Cc1ccc(O)cc1)[C@H](C)O)C(=O)N[C@@H](CO)C(N)=O — EC50 (GTPγS binding, agonist, radiometric; cell membranes): > 1000 nM
Cc1cc(O)cc(C)c1CC(N)C(=O)NC1CCNc2c1cc(Cc1ccccc1)cc2C(F)(F)F (stereo not drawn) — EC50 (GTPγS binding, agonist, radiometric; cell membranes): 580 nM
CC[C@H](C)[C@H](NC(=O)[C@@H](N)Cc1ccc(O)cc1)C(=O)N[C@@H](Cc1ccccc1)C(=O)N[C@@H](CC(N)=O)C(=O)N[C@@H](CC(C)C)C(=O)O — IC50 ([3H]EKC binding displacement, whole-cell radioligand binding; MCF7; added: DADLE): 0.159 ± 1.4e-12 nM
CCc1cc(Cc2ccccc2)cc2c1NCCC2NC(=O)C(N)Cc1c(C)cc(O)cc1C (stereo not drawn) — Ki (ligand displacement, radioligand; cell membranes): 40 nM
CC(=O)N1CCC(NC(=O)C(N)Cc2c(C)cc(O)cc2C)c2cc(CN3CCC4CCCCC4C3)ccc21 (stereo not drawn) — EC50 (GTPγS binding, agonist, radiometric; cell membranes): > 2000 nM
Cc1cc(O)cc(C)c1C[C@H](N)C(=O)N[C@@H](C(=O)NCC(=O)N[C@@H](Cc1ccc2ccccc2c1)C(=O)N[C@@H](CC(C)C)C(=O)N[C@@H](CO)C(N)=O)[C@H](C)O — Kb (GTPγS binding, antagonist, radiometric; cell membranes): 63 nM
Cc1cc(O)cc(C)c1CC(N)C(=O)NC1CCNc2ccc(CN3CCC4CCCCC4C3)cc21 (stereo not drawn) — EC50 (GTPγS binding, agonist, radiometric; cell membranes): 600 nM
CC(C)[C@H]1CC[C@@H](N2CC[C@@](C)(c3cccc(O)c3)[C@@H](C)C2)CC1 — EC50 (GTPγS binding, agonist, radiometric): > 10000 nM
